Experimental data from different studies.
Each line is one published result; not all experiments were run side by side. “And” joins repeats or separate records; there may be more than shown. Numbers after ± are the reported error.

SMILES	target or system	assay	test system	setting	how to read	measurement	value
Cc1nc(-c2ccc(OCC(C)C)c(C#N)c2)sc1C(=O)O	–	–	KM mouse, chronic hyperuricaemia model	dose not given, day 13	–	body weight	28.8 g and 31.2 g and 31.4 g and 34.8 g and 37.6 g and 34.2 g
COc1cc(C(=O)NC2CCN(C)CC2)c(F)cc1Nc1ncc(C(F)(F)F)c(Oc2cccc3c2C(=O)N(C)C3)n1	–	–	human patients, plasma	oral, 50 mg single dose, geometric mean	–	dose-normalised Cmax	6.24 nmol/L per mg
CC[C@H](C)[C@H](NC(C)=O)C(=O)N[C@H]1CSSC[C@@H](C(=O)N[C@H](C(N)=O)[C@@H](C)O)NC(=O)[C@H](CCCNC(=N)N)NC(=O)[C@H](Cc2c[nH]cn2)NC(=O)[C@H](C)NC(=O)CNC(=O)[C@H](Cc2c[nH]c3ccccc23)NC(=O)[C@H](CC(=O)O)NC(=O)[C@H](CCC(N)=O)NC(=O)[C@H](Cc2cn(C)c3ccccc23)NC(=O)[C@H](C(C)C)NC1=O	–	isocratic RP-HPLC, C18	32% acetonitrile, phosphate pH 7.4, 1% TFA	25 °C	–	retention factor	1.832 ± 0.007
Nc1ncn([C@H]2C[C@H](O)[C@@H](CO)O2)c(=O)n1	–	–	mouse plasma	1.2 ng/mL, 3 months, -80 °C, long-term stability, with THU	–	mean deviation from nominal	11.6%
CC1(C)CC[C@]2(NC(=O)C(C)(F)F)CC[C@]3(C)[C@H](C(=O)C=C4[C@@]5(C)C=C(C#N)C(=O)C(C)(C)[C@@H]5CC[C@]43C)[C@@H]2C1	–	–	human, plasma	oral, 150 mg, day 23 predose, geometric mean	–	trough plasma concentration	35 ng/mL
C[C@@H](Oc1ccc(S(C)(=O)=O)cc1C(=O)N1C[C@@H]2C[C@]2(c2cc(C(F)(F)F)on2)C1)C(F)(F)F	–	–	human, urine	oral, 25 mg, mean	baseline: dose	urinary excretion	9.4%
C=CCn1c(=O)c2cnc(Nc3ccc(N4CCN(C)CC4)cc3)nc2n1-c1cccc(C(C)(C)O)n1	–	–	human, plasma	oral, across treatment cohorts	–	Tmax	1.9 to 3 h
CCc1cc(C(=O)NC)c2nccc(N3CCc4c(cc(Cn5ccnc5)cc4-c4cn(C)nc4C(F)(F)F)C3=O)c2c1	–	–	Sprague Dawley rat, male, plasma	oral, 100 mg/kg twice daily, 7 days	–	t1/2	1.3 h
CN1C(=O)[C@@H](NC(=O)c2nnc(Cc3ccccc3)[nH]2)COc2cccnc21	–	–	healthy human, fasted, plasma	oral, 10 mg single dose, geometric mean	–	terminal half-life	5.85 h
Cn1cc(Nc2nccc(-c3ccc4c(c3)CN(C3COC3)CC[C@H]4NC(=O)c3cn(C(C)(C)C)nn3)n2)cn1	–	–	human, whole blood	300 mg twice daily, day 14	baseline: pre-dose baseline	naive B cell count change	50.2%
CNC(=O)c1ccc(-c2cnc3ncc(Cc4ccc5ncccc5c4)n3n2)cc1F	–	–	healthy human subjects	oral, dose not given, all grades, with: rifampicin	baseline: subjects	treatment-related headache incidence	11.5%
CCn1c(=O)c(-c2cc(NC(=O)Nc3ccccc3)c(F)cc2Br)cc2cnc(NC)cc21	–	measured: lipase increased	human, severe hepatic impairment	oral, 50 mg single dose	–	participants with drug-related TEAE	100%
C=C1C[C@@]23C=CC(=O)[C@@](C)(CCC(=O)Nc4c(O)ccc(C(=O)O)c4O)[C@@H]2C[C@@H]1CC3	–	–	C57BL/6 mice, male, plasma	intravenous, 3 mg/kg	–	clearance	23 mL/min/kg
COc1cc2c(c(O)c1OC)C(=O)c1c(cc(C)c(O)c1OC)C2=O	HK-2 co-cultured with HepaRG	MTT	–	66.67 µM, 24 h	baseline: untreated control	cell viability	47.6 ± 8.83%
NC(=O)N1c2ccccc2C=Cc2ccccc21	–	–	healthy human subjects, plasma	oral, dose not given, day 20, twice daily, alone	–	AUC(0-12h)	80100 ng·h/mL
C[C@@H]1COCCN1c1cc(C2([S@](C)(=N)=O)CC2)nc(-c2cc[nH]c3nccc2-3)n1	–	–	Japanese advanced solid tumour patients	oral, 240 mg twice daily, CTCAE grade ≥3	–	Rash incidence	0%
NC(=O)c1[nH]cnc1N	–	–	leiomyosarcoma patients, plasma	intravenous, dose not given, cycle 2 day 1, with: dacarbazine co-administered	baseline: cycle 1 day 1	AUC(0-24h) reduction	61.7%
C=CCN1CC(=O)N2[C@@H](Cc3ccc(O)cc3F)C(=O)N(Cc3cccc(N4CC(N5CCN(CC)CC5)C4)n3)C[C@@H]2N1C(=O)NCc1ccccc1	–	measured: Vomiting	advanced solid tumour patients	all doses, expansion part, grade ≥3	–	treatment-related adverse events	0%
CC[C@@H]([C@H](C)O)n1ncn(-c2ccc(N3CCN(c4ccc(OC[C@@H]5CO[C@@](Cn6cncn6)(c6ccc(F)cc6F)C5)cc4)CC3)cc2)c1=O	–	–	Sprague-Dawley rats, plasma	oral, 40 mg/kg, incomplete elimination, with: zanubrutinib 16 mg/kg	–	t1/2	11.4 ± 6.51 h
Cc1ccc([C@@H]2O[C@H](CO)[C@@H](O)[C@H](O)[C@H]2O)cc1Cc1ccc(-c2ccc(F)cc2)s1	–	–	Japanese type 2 diabetes patients	25 mg, day 18, 24 h urine collection	baseline: baseline	urinary sodium excretion change	-41.5 mEq
CC(=O)N[C@@H](CNC(=O)c1cc(NC(=O)c2cc(NC(=O)c3cc(NC(=O)c4nccn4C)cn3C)cn2C)cn1C)CC(=O)Nc1cn(C)c(C(=O)Nc2cc(C(=O)Nc3cc(C(=O)Nc4cc(C(=O)NCCCN(C)CCCNC(=O)c5cccc(C(=O)O)c5)n(C)c4)n(C)c3)n(C)c2)n1	–	dynamic light scattering	0.1% DMSO in PBS	25 °C	–	critical aggregation concentration	4 µM

SMILES	target or system	assay	test system	setting	how to read	measurement	value
O=C(COc1ccc(Cl)cc1)NC12CC(c3nnc([C@H]4C[C@@H](OC(F)(F)F)C4)o3)(C1)C2	–	measured: Headache	human	200 mg once daily, 28 (unit not given)	–	adverse event incidence	44.4%
COc1c(O[C@@H]2O[C@H](CO)[C@@H](O)[C@H](O)[C@H]2O)cc2c(c1O)C(=O)c1c(cc(C)c(O)c1OC)C2=O	HK-2 co-cultured with HepaRG	MTT	–	16.67 µM, 24 h	baseline: untreated control	cell viability	91.2 ± 15.1%
O=C(O)CCCOc1ccc([18F])cc1-c1cc(-c2ccccc2C(F)(F)F)n(-c2ccccc2)n1	–	gamma counting	male ddY mice, muscle	intravenous, 2.1 MBq, 60 min	–	radioactivity uptake	1.18 ± 0.27 SUV
CC(C)(C(=O)N1CCOc2c(C#N)cncc2C1)C(F)F	–	measured: phlebitis	human, both sexes	oral, 10 mg once daily, 14 days, multiple ascending dose	–	subjects with TEAE	0%
O=C(N[C@H](Cc1c[nH]c2ccccc12)C(=O)Nc1ccncc1)c1ccc(N2CCN(c3ccc(F)c(F)c3)CC2)cc1F	–	–	Swiss Webster mouse, female, heart	oral, 50 mg/kg, 8 h, 20% HPβCD vehicle	–	concentration	310 nM
C[C@H]1CN(C(=O)CC#N)[C@]12CCN(c1ncnc3[nH]ccc13)C2	–	–	healthy Japanese men, urine	oral, 25 mg, single dose	baseline: dose	fraction excreted unchanged	80.9%
O=C(c1cccnc1-c1ccncc1)N1CCC(O)(Cc2ccccc2)CC1	–	–	healthy Japanese adults, plasma	oral, 200 mg single dose	–	Vz/F	4260 L
CCn1cc(C(=O)N2CCOCC2)c(=O)c2cc(NC3Cc4ccccc4C3)cnc21	–	–	human female, fed, plasma	oral, 900 mg twice daily, day 1, tablet, arithmetic mean	–	AUC(0-12h)	33100 ng·h/mL
CCCCCCCCCCCC(=O)[O-].C[N+](C)(C)CCO	–	fluorescence probe	water	37 °C	–	critical aggregation concentration	14100 ± 180 µM
C=CC(=O)NC1CCN(c2ncc3ncnc(Nc4ccc(Oc5ccc6c(c5)ncn6C)c(C)c4)c3n2)CC1	–	–	healthy male volunteers, plasma	oral, 60 mg, 14C-labelled solution, geometric mean	–	AUC(0-24h)	10.4 µM·h
COc1ncc(-c2nc3c(n2C(C)C)[C@H](c2ccc(Cl)cc2)N(c2cc(Cl)cn(C)c2=O)C3=O)c(OC)n1	–	–	human patients, plasma	oral, 250 mg, high-dose arm, cycle 1 day 1	–	median Tmax	3 h
NC1(C(=O)N[C@@H](CCO)c2ccc(Cl)cc2)CCN(c2nc[nH]c3nccc2-3)CC1	–	–	metastatic CRPC patients	320 mg b.i.d., any grade, treatment-related, with: enzalutamide 160 mg daily	–	incidence of Blindness	0%
O=C(Nc1nc2cccc(-c3ccc(CN4CCS(=O)(=O)CC4)cc3)n2n1)C1CC1	–	measured: investigations	human rheumatoid arthritis patients	oral, 300 mg once daily, 4 weeks, regardless of relatedness	–	treatment-emergent adverse events	0%
COc1cc2c3c(n(CCCNC(C)C)c(=O)c2cc1OC)-c1nc2c(cc1C3=O)OCO2	–	–	male CD1 mouse, plasma	intravenous, 1 mg/kg	–	dose-normalized AUC(0-t)	143 ng·h/mL
O=C(O)CCC(=O)O.[2H]C([2H])([2H])Oc1cc(C)c2[nH]ccc2c1CN1CC[C@@H](C2CC2)C[C@H]1c1ccc(C(=O)O)cc1	–	multiple ascending dose	healthy Chinese subjects	300 mg once daily	–	subjects with muscle pain TEAE	0%
C[C@@H]1CCO[C@H]2Cn3cc(C(=O)NCc4ccc(F)cc4F)c(=O)c(O)c3C(=O)N12	–	population PK, post-hoc	children, 20 to <25 kg, plasma	oral, 16 mg granules, steady state, geometric mean	–	AUC(0-24)	43600 ng·h/mL
CNc1ccc(-c2nc3ccc(O)cc3s2)cc1 [carbon-11 labelled]	–	ex vivo biodistribution	APP/PS1 mouse, AD model, thalamus	intravenous, 30 min	–	SUV	0.16 ± 0.08
CC#CC(=O)N1CC[C@@H](n2c(=O)n(-c3ccc(Oc4ccccc4)cc3)c3c(N)ncnc32)C1	–	–	human, fasting, plasma	oral, 320 mg once daily, cycle 1 day 28	–	AUC(0-12h)	5370 ± 1140 ng·h/mL
COc1c(N2C[C@@H]3CCCN[C@@H]3C2)c(F)cc2c(=O)c(C(=O)O)cn(C3CC3)c12	–	–	healthy volunteers	oral, 400 mg single dose, day 5, 24.00 h	–	QTcI change from baseline	2.1 ms
N#CCc1ccccc1C#Cc1ccc(CCC(=O)O)cc1	–	–	–	100 µM, Cerep high-content toxicity	–	change in mitochondrial membrane potential	-14%

Excerpt of the above:
SMILES	target or system	assay	test system	setting	how to read	measurement	value
O=C(Nc1nc2cccc(-c3ccc(CN4CCS(=O)(=O)CC4)cc3)n2n1)C1CC1	–	measured: investigations	human rheumatoid arthritis patients	oral, 300 mg once daily, 4 weeks, regardless of relatedness	–	treatment-emergent adverse events	0%
CC[C@@H]([C@H](C)O)n1ncn(-c2ccc(N3CCN(c4ccc(OC[C@@H]5CO[C@@](Cn6cncn6)(c6ccc(F)cc6F)C5)cc4)CC3)cc2)c1=O	–	–	Sprague-Dawley rats, plasma	oral, 40 mg/kg, incomplete elimination, with: zanubrutinib 16 mg/kg	–	t1/2	11.4 ± 6.51 h
CC(C)(C(=O)N1CCOc2c(C#N)cncc2C1)C(F)F	–	measured: phlebitis	human, both sexes	oral, 10 mg once daily, 14 days, multiple ascending dose	–	subjects with TEAE	0%
NC1(C(=O)N[C@@H](CCO)c2ccc(Cl)cc2)CCN(c2nc[nH]c3nccc2-3)CC1	–	–	metastatic CRPC patients	320 mg b.i.d., any grade, treatment-related, with: enzalutamide 160 mg daily	–	incidence of Blindness	0%
